Measured values from different studies.
Numbered parts are unrelated; each lists some results of a single study.

Study 1
Target: Centromere-binding protein 1, full length, N-terminal tag (CBF1, Saccharomyces cerevisiae, UniProt P17106, residues 1-351)
Sequence of UniProt P17106 (whole entry, looked up): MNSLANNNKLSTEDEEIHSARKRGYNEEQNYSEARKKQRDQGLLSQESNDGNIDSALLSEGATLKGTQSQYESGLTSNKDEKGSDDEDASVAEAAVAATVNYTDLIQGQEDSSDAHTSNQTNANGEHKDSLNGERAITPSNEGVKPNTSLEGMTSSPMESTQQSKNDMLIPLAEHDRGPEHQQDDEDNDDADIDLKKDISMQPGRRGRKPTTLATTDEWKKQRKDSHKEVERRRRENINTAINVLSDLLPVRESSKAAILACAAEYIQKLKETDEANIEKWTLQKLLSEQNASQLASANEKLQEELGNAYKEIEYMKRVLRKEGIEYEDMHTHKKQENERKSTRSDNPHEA
Method: protein-binding microarray
Form: double-stranded DNA, one strand shown
Medium: in vitro
Concentration: 0.8 µM
Setting: whole 60-bp probe, no competitor
Direction: higher = stronger binding
Quantity: fluorescence intensity
All sequences stand within: … GTCTTGATTCGCTTGACGCTGCTG
GAAAAGTTACGGCACACCGTGATGTACCCGCATTAG: 533 a.u.
TGTACGAAGCTATGGCACGCCGGTATAGTAGTTAGG: 535 a.u.
CTACAAGCCACTTCTCATGACATATATTGGTAATTC: 546 a.u.
CCTAACTACTATAGTGACAAAGCATAGCTTCGTACA: 465 a.u.
GAAAAACTTTTCTTAATGATGATGGCGTCTGTCTAG: 523 a.u.
GAAATGCATTAGAATAACGTGCCGTTAATTTTGTAG: 881 a.u.
CTAATAATAGTGGTCCATGTGACATCTTTATAATTC: 2890 a.u.
CTAGCGACCAGGAATCTCCTGATTGCGTACTACTTC: 542 a.u.

Study 2
Target: Prothrombin, mature alpha-thrombin (F2, Homo sapiens, UniProt P00734)
Method: aptamer microarray, sandwich
Form: DNA with 2'F-ANA
Medium: in vitro
Concentration: 200 nM
Setting: whole 15-mer aptamer, many near background
With: Cy3 exosite-II aptamer, 400 nM
Direction: higher = stronger binding
Quantity: mean fluorescence intensity
Oligonucleotide: GGTTGGTGTGGTTGG
2'F-ANA at 1 4 5 7 8 10 11 14: 56.6 a.u.
2'F-ANA at 2 5 7 8 9 10 12 15: 97.8 a.u.
2'F-ANA at 1 5 8 9 10: 44.7 a.u.
2'F-ANA at 1 7 10 15: 56.1 a.u.
2'F-ANA at 2 3 5 6: 96.5 a.u.
2'F-ANA at 1 2 8 9 11 13 14 15: 54.3 a.u.
2'F-ANA at 1 2 3 4 7 8 9 10 12 14: 55.9 a.u.
2'F-ANA at 1 2 5 6 8 10 12 15: 53.4 a.u.

Study 3
Target: RNA binding protein fox-1 homolog 2, RRM domain, GST-SBP tag (RBFOX2, Homo sapiens, UniProt O43251-10, residues 100-194)
Method: RNA Bind-n-Seq
Form: RNA
Medium: in vitro
Concentration: 365 nM
Setting: natural RNA segment, single round, ends assumed
Relative to: no-protein control
Direction: higher = stronger binding
Quantity: RBNS enrichment (R)
All sequences stand within: GGGAGUUCUACAGUCCGACGAUC … UGGAAUUCUCGGGUGCCAA
Construct (chain): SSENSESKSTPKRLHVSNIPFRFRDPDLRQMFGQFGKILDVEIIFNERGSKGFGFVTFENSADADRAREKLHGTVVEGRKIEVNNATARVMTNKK
GGUGUCCUAAGGUUAAGGCGGUGCGCCUUGUCAUGUGCUCCUUGUACCAUGCCAUCUGUGCCAGUGUGUGUCUGCCUCACCCUGUGCUUGACAUGUUCACCCAUCUUCUC: 2.02
UCCUGCUCGGCUUUUCGCUUGAACAUUCCCUUGAUCUCAUCAGUUCUGAGCGGGUCAUGGGGCAACACGGUUAGCGGGGAGAGCACGGGGUAGCCGGAGAAGGGCCUCUG: 0.908
CAGGGCAGCAGAUCUGUAUAUUUUUUUCUAAGAGAAAAUGUAAAUAAAGGAUUUCUAGAUGAGUGAGCUCAUUACUAAACUAAAGCAGGAGUGGGUCAAUACAGCAGCUG: 0.33
GAUGGUGAUAUGAAACAAAAAGUGGCAAUUAUUGCAGGUUUCCUUUUAGUUUACAAAAGUACUGGAAACUAAAUCAUAUUUCUUCCCUCCAAAUUUCACCCAUUCCUGAC: 0.42
UGUAGUUUCCAUGCAUAUUUCACCAUGGUUCGCACUCUGAUCCUCAUCUGGUUUAGAAAGCAAUUCAGUUUCUUUCAAACCACCAUAACCUAAGUGCUGCCCCAUCCUUC: 1.22
UACAUAUGGAUGAAAAUGAAUCUUAGUCACUGAAUAUUCAUAUACAUUUCCCCCAAAACCUUAGACAUUCAUAGUAGAUUUUAAUUAGUUAGCUUUCUAACUAGUCAGAU: 0.432
UAAUGCUCCCAUCUCCUGAUUUCUCUGAACAGAAAACAAAAGAGAGAAUGAGGGAAAUUGCUAUUUUAUUUGUAUUCAUGAACUUGGCUGUAAUCAGUUAUGCCGUAUAG: 4.89
AAAGCUGCCCAGAACUCUGGGGAGGCAGAAUAUAUCGAAAAAGUAGUAUAUUCUGUAAAACAGAAUGCAGACGAUGUUAAGAAGGCUCUAGAUGGCGAACUUGAUGAAAA: 0.361

Mixed results
SHDLAPQFL
binding (HLA class I histocompatibility antigen, A alpha chain, allele A*80:01 (Homo sapiens, UniProt P04439); peptide-MHC binding; peptide; concentration not given): inactive
